Measured values pooled from the literature.
Parts stem from different laboratories: compare values within a part only. pIC50: −log10 of the molar value.
Sequence of UniProt Q9BX84 (whole entry, looked up): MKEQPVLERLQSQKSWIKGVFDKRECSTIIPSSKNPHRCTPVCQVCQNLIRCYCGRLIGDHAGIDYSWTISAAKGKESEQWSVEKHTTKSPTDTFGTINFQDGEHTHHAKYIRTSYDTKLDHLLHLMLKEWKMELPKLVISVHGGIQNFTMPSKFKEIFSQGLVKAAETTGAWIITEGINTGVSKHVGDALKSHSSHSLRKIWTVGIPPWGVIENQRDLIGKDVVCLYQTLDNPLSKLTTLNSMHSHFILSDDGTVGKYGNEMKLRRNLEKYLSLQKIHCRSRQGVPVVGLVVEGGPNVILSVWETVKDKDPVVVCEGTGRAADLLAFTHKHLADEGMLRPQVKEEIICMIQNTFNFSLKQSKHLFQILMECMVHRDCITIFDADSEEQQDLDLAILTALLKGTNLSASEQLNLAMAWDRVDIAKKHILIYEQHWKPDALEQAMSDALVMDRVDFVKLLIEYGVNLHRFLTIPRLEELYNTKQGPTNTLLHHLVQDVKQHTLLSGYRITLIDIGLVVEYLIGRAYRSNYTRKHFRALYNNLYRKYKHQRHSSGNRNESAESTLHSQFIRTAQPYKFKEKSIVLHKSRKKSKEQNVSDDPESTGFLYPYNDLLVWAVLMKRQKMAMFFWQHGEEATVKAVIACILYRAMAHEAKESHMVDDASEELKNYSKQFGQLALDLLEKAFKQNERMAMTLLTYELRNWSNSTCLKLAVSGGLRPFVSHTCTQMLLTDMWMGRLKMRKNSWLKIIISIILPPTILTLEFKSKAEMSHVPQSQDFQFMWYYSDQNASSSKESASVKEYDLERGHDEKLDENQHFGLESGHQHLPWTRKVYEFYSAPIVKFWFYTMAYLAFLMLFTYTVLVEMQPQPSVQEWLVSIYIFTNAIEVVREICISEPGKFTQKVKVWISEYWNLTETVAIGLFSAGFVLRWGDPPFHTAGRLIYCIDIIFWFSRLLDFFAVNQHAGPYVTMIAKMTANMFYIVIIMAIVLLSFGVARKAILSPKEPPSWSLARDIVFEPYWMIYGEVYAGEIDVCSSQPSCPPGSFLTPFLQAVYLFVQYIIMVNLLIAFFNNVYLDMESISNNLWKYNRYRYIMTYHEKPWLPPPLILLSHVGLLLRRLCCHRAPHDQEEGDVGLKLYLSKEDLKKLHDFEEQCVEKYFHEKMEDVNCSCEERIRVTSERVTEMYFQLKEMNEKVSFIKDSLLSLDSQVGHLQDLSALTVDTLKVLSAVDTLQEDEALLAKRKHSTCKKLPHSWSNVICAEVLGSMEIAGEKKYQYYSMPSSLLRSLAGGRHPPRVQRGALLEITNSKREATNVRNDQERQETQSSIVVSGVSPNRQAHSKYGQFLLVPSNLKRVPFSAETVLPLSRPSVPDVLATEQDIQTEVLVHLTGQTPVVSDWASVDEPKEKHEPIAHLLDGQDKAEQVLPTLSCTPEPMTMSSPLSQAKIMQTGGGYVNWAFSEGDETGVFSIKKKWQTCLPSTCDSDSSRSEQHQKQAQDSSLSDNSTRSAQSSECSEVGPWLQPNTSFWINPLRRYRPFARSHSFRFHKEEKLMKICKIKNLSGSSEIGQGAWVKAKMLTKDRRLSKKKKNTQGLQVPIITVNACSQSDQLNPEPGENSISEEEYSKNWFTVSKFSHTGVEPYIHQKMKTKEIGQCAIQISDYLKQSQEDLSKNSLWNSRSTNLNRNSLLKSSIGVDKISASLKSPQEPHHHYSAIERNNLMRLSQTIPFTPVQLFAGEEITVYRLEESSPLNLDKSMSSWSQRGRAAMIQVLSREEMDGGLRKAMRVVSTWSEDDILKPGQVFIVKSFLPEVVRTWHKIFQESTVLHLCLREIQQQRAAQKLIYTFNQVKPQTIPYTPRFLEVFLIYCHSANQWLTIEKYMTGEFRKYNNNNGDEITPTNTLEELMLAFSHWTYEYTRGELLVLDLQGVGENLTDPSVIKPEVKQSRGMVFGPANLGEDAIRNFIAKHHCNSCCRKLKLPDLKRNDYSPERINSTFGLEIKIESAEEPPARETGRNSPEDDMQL
Sequence of UniProt Q96RG2 (whole entry, looked up): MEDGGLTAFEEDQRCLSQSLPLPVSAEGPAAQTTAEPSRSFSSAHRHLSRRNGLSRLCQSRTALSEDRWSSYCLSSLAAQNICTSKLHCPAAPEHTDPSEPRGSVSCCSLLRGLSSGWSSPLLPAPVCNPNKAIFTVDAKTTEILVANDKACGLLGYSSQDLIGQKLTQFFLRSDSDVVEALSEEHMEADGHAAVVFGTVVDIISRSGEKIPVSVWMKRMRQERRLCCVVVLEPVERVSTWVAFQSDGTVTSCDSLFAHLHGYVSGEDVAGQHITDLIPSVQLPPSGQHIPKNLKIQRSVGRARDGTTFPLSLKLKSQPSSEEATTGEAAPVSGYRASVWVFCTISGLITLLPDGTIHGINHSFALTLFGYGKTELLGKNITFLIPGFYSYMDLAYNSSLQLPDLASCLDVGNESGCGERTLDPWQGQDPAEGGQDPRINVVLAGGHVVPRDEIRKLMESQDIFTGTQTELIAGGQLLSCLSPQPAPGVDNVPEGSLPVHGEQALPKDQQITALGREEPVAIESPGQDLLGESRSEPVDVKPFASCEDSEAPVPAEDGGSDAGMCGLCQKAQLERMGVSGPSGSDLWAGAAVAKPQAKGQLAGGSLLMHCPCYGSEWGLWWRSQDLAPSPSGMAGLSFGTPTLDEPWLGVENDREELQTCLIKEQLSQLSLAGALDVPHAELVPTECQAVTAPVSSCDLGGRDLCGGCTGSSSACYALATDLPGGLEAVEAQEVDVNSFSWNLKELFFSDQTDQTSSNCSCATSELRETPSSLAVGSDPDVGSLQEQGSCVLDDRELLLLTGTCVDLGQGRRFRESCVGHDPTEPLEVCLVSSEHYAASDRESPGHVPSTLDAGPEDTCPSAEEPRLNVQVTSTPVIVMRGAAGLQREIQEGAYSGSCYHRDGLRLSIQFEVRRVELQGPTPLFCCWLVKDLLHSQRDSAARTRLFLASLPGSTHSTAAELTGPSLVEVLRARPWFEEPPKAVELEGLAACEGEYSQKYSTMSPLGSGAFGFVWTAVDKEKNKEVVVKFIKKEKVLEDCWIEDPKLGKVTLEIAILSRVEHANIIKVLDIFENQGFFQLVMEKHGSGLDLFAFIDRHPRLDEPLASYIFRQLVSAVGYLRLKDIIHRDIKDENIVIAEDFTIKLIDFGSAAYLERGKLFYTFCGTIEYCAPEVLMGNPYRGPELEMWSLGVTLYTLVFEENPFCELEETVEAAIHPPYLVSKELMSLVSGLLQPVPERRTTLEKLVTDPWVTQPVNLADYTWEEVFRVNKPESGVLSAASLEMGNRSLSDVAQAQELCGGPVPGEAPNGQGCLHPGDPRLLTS
Sequence of UniProt Q8IU85 (whole entry, looked up): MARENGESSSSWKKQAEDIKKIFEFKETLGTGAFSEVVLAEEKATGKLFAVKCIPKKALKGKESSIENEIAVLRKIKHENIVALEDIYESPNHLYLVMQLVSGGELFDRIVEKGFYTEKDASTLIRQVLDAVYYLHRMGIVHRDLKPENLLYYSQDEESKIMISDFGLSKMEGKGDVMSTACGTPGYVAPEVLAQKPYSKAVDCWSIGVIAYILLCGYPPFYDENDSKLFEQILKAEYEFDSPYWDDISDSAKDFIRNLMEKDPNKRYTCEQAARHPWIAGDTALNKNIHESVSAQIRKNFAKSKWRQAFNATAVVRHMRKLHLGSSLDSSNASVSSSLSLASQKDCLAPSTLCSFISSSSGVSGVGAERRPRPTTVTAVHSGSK
Sequence of UniProt Q9BQI3 (whole entry, looked up): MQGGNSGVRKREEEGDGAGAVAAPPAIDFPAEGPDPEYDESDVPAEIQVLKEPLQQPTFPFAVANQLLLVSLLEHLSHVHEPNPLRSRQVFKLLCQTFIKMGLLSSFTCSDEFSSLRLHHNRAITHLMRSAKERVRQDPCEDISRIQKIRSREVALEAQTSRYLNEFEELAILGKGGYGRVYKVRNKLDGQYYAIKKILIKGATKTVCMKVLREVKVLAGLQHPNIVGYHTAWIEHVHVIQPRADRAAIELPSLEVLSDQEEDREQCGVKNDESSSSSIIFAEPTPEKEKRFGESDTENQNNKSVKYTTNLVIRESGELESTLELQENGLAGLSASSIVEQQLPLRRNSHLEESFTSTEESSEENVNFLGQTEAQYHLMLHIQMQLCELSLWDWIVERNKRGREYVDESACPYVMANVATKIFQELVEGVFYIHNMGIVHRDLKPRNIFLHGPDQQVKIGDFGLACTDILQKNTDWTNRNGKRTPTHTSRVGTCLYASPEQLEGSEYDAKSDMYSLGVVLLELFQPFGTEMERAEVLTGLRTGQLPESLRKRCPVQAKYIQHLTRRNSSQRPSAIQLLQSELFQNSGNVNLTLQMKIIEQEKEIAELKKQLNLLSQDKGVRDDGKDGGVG

Sample 1
Target: Beta-1 adrenergic receptor (ADRB1, Homo sapiens, UniProt P08588)
Sequence of UniProt P08588 (whole entry, looked up): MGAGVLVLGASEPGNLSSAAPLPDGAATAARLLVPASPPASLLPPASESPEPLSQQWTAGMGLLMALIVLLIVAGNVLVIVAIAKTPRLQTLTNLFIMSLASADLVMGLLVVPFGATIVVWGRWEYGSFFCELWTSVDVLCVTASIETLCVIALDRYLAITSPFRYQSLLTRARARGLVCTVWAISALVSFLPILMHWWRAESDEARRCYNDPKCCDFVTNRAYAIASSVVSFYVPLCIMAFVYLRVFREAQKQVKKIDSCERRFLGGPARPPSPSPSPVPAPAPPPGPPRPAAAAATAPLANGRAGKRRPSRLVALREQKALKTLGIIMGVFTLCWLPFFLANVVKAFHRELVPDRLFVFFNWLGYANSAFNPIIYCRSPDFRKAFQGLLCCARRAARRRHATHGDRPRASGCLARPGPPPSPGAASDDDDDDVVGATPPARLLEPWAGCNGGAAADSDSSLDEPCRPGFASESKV
Mode: antagonist
For `CN1CCN(Cc2cccc(OCC(O)CN3CCOCC3)c2)CC1(C)C` (centres unmarked), the pIC50 was ≤ 4.00.
For `COc1ccccc1N1CCN(C(=O)c2ccc3[nH]c(C)c(C)c3c2)CC1`, the pIC50 was ≤ 4.00.
The pIC50 of `Nc1nc(N)c2nc(-c3cccc(O)c3)cnc2n1` is reported as ≤ 4.00.

Sample 2
SMILES: O=C(Nc1cnn(-c2csc(C(=O)NC3COC3)c2)c1)Nc1c(F)cccc1Cl
Observed: enzyme activity
Concentration: 5 µM
Relative to: untreated control
The remaining activity was 81.6% (Mitogen-activated protein kinase kinase kinase kinase 4 (MAP4K4, Homo sapiens, UniProt O95819)).
The remaining activity was 89.8% (Serine/threonine-protein kinase Chk2 (CHEK2, Homo sapiens, UniProt O96017)).
The remaining activity was 93.3% (PAS domain-containing serine/threonine-protein kinase (PASK, Homo sapiens, UniProt Q96RG2)).

Sample 3
Host: mouse
Sample: microsomes or S9
Concentration: 2 µM
Time: 0.5 h
`CS(=O)(=O)c1ccc(-c2cc(F)c(OCC3CCNCC3)c(F)c2)cc1` gave a remaining compound of 42.5%.
With `CC(C)Nc1ccnc(N2CCN(Cc3cccs3)C(CCO)C2)n1` (centres unmarked) the remaining compound was 2.23%.
`CN(Cc1ccccc1)c1nc2ccccc2n1CC(O)COc1ccccc1` (centres unmarked) has a remaining compound of 3.72%.

Sample 4
Structure (SMILES): CN(c1ccnc(CNc2nc(Nc3ccc4c(c3)CC(=O)N4)ncc2C(F)(F)F)n1)S(C)(=O)=O
Observed: cell-free assay
Method: competition with immobilised ligand
Concentration: 1 µM
The remaining binding was 42% (Phosphatidylinositol 5-phosphate 4-kinase type-2 gamma (PIP4K2C, Homo sapiens, UniProt Q8TBX8)).
Rhodopsin kinase GRK1 (GRK1, Homo sapiens, UniProt Q15835) — remaining binding: 74%.
It gave 5.4% for remaining binding (Serine/threonine-protein kinase ULK2 (ULK2, Homo sapiens, UniProt Q8IYT8)).
It gave 46% for remaining binding (Tyrosine-protein kinase ABL1, phosphorylated (ABL1, Homo sapiens, UniProt P00519, H396P)).
For Atypical kinase COQ8A, mitochondrial (COQ8A, Homo sapiens, UniProt Q8NI60): remaining binding read 79%.
Serine/threonine-protein kinase MARK1 (MARK1, Homo sapiens, UniProt Q9P0L2) — remaining binding: 77%.
It gave 97% for remaining binding (Serine/threonine-protein kinase BRSK2 (BRSK2, Homo sapiens, UniProt Q8IWQ3)).
It gave 87% for remaining binding (Eukaryotic translation initiation factor 2-alpha kinase 1 (EIF2AK1, Homo sapiens, UniProt Q9BQI3)).
For Serine/threonine-protein kinase DCLK1 (DCLK1, Homo sapiens, UniProt O15075): remaining binding read 57%.
For Phosphatidylinositol 3-kinase C2 domain-containing subunit gamma (PIK3C2G, Homo sapiens, UniProt O75747): remaining binding read 77%.
It gave 58% for remaining binding (Platelet-derived growth factor receptor alpha (PDGFRA, Homo sapiens, UniProt P16234)).
Myosin light chain kinase (MYLK3, Homo sapiens, UniProt Q32MK0) — remaining binding: 100%.
The remaining binding was 79% (Calcium/calmodulin-dependent protein kinase type 1D (CAMK1D, Homo sapiens, UniProt Q8IU85)).
The remaining binding was 86% (Transient receptor potential cation channel subfamily M member 6 (TRPM6, Homo sapiens, UniProt Q9BX84)).

Sample 5
Target: Cyclic AMP-dependent transcription factor ATF-1, full length (ATF1, Homo sapiens, UniProt P18846, residues 1-271)
Method: protein-binding microarray
Molecule type: hairpin DNA
Sample: in vitro
Concentration: not given
Setting: whole hairpin DNA, median over replicate spots
Relative to: not given
Reading: higher = stronger binding
Construct (chain): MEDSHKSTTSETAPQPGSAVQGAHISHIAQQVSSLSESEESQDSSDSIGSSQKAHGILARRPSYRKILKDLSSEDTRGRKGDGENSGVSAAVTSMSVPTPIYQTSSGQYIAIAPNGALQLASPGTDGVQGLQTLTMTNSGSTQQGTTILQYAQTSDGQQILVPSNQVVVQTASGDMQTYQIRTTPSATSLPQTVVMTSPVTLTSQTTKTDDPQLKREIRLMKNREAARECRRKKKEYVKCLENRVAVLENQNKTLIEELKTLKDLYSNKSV
With `GAGGCCCGATGACGTCAGCCTCCTGGCTGACGTCATCGGGCCTCACACTC` the median fluorescence was 16900 a.u.
`GAGGCCGGATGACGTCGGCCTCCTGGCCGACGTCATCCGGCCTCACACTC (5mC at 28)` gave a median fluorescence of 12500 a.u.
For `GAGGCCGACGACCTCGTGCCTCCTGGCACGAGGTCGTCGGCCTCACACTC (5mC at 9 13 15 29 35)`, the median fluorescence was 3170 a.u.
The median fluorescence of `GAGGCCGGCTGACGCGAGCCTCCTGGCTCGCGTCAGCCGGCCTCACACTC (5mC at 15 29)` is reported as 5550 a.u.
`GAGGCCGATGACGTCGTGCCTCCTGGCACGACGTCATCGGCCTCACACTC (5mC at 15 29 35)` gave a median fluorescence of 4340 a.u.
`GAGGCCGGATGACGCCAGCCTCCTGGCTGGCGTCATCCGGCCTCACACTC (5mC at 15)` has a median fluorescence of 11900 a.u.
For `GAGGCCGGATGATGTCAGCCTCCTGGCTGACATCATCCGGCCTCACACTC`, the median fluorescence was 4020 a.u.
`GAGGCCGCCGACGTCGTGCCTCCTGGCACGACGTCGGCGGCCTCACACTC (5mC at 8 9 15 29 35)` has a median fluorescence of 4460 a.u.

Other studies, line by line
For `C=CC1=C(C(=O)O)N2C(=O)[C@@H](NC(=O)/C(=N\O)c3csc(N)n3)[C@H]2SC1`, the inhibition was -16.2% (Sarcocystis neurona; parasite growth; 10 µM, 96 h).

Repeated from above (sample 4):
It gave 97% for remaining binding (Serine/threonine-protein kinase BRSK2 (BRSK2, Homo sapiens, UniProt Q8IWQ3)).
Rhodopsin kinase GRK1 (GRK1, Homo sapiens, UniProt Q15835) — remaining binding: 74%.
For Serine/threonine-protein kinase DCLK1 (DCLK1, Homo sapiens, UniProt O15075): remaining binding read 57%.
